Published values of several laboratories.
Each line is one published result; not all experiments were run side by side. ± marks the error that the study gave.

| SMILES | organism | assay | system | setting | EC50 |
| --- | --- | --- | --- | --- | --- |
| Nc1nc(CC(O)c2ccccc2C(F)(F)F)c(Br)c(=O)[nH]1 (stereo not drawn) | reovirus type 1 | virus-induced cytopathicity | Vero |  | > 100 µM |
| CCOC(=O)C1(Cc2ccc(F)cc2)CN(c2ccccc2)Cc2nnn(Cc3ccc(Cl)c(Cl)c3)c21 (stereo not drawn) | human adenovirus 2 | viral replication | HEL |  | > 100 µM |
| COC(=O)N[C@H](C(=O)N1CCC[C@H]1c1ncc(-c2ccc(-c3ccc(-c4cnc([C@@H]5CCCN5C(=O)[C@@H](NC(=O)OC)C(C)C)[nH]4)cc3)cc2)[nH]1)C(C)C | canine parainfluenza virus | viral replication | Vero |  | 26 µM |
| CCOC(=O)C1(Cc2ccccc2)CN(c2ccccc2)Cc2nnn(Cc3ccccc3Cl)c21 (stereo not drawn) | human adenovirus 2 | viral replication | HEL |  | > 100 µM |
| NC(=O)c1ncn([C@@H]2O[C@H](CO)[C@@H](O)[C@H]2O)n1 | West Nile virus | viral replication | BHK-21 |  | 43 µM |
| CCOC(=O)C1(Cc2ccccc2)CN(c2ccccc2)Cc2nnn(Cc3ccccc3)c21 (stereo not drawn) | human adenovirus 2 | viral replication | HEL |  | > 100 µM |
| Nc1ccn(C[C@@H](CO)OCP(=O)(O)O)c(=O)n1 | human adenovirus 2 | viral cytopathic effect | HEL |  | 10 µM |
| CC(C)CC(=O)OC[C@H]1O[C@@](C#N)(c2ccc3c(N)ncnn23)[C@H](O)[C@@H]1O | human respiratory syncytial virus | viral replication | HEp-2 | with: verapamil 100 µM | 0.198 µM |
| COc1ccccc1CCn1nnc2c1CCN(c1ccc(C(F)(F)F)cc1)C2 | human adenovirus 2 | viral replication | HEL |  | > 100 µM |
| COc1ccc(/C=C/c2nc(N)[nH]c(=O)c2Br)cc1OC | reovirus type 1 | virus-induced cytopathicity | Vero |  | > 100 µM |
| C[C@H]1CN(c2n[nH]c3nc(N[C@H]4CC[C@H](NS(=O)(=O)CCC(F)(F)F)CC4)ncc23)CCO1 | Leishmania donovani |  | promastigotes, LdBOB CRK12 single knockout |  | 0.0067 ± 0.00022 µM |
| Cc1cc(C)c(/C=C/c2nc(N)[nH]c(=O)c2Br)c(C)c1 | reovirus type 1 | virus-induced cytopathicity | Vero |  | > 20 µM |
| COc1cc(NC(C(=O)N2CCc3ccc(OC(F)(F)F)cc32)c2ccc(Cl)cc2)cc(OCCCC(=O)O)c1 (stereo not drawn) | dengue virus type 2 | viral replication, Renilla luciferase reporter virus | Huh-7.5.1 | 48 h | 0.0002 µM |
| CCOC(=O)C1(Cc2ccccc2)CN(c2ccccc2)Cc2nnn(Cc3ccc(Cl)c(Cl)c3)c21 (stereo not drawn) | human adenovirus 2 | viral replication | HEL |  | > 100 µM |
| O=C(N1CCC2(CC1)C[C@@H](CN1CCCCS1(=O)=O)CCO2)C1(c2ccccc2)CCCC1 | West Nile virus | viral replication | Vero |  | > 10 µM |
| COCC(=O)N1CCC[C@H](C(=O)NCc2nc(-c3ccc(C#N)cc3)cs2)C1 | Plasmodium falciparum |  | Dd2 β3 R190S resistant |  | 0.38 ± 0.13 µM |
| COc1ccnc(C(=O)N[C@H]2COC(=O)[C@H](Cc3ccccc3)[C@@H](OC(=O)C(C)C)[C@H](C)OC2=O)c1OCOC(=O)C(C)C | Daphnia magna |  |  | acute risk assessment | 0.93 ng/mL |
| CCOC(=O)C1(Cc2ccccc2)CN(c2ccccc2)Cc2nnn(Cc3ccco3)c21 (stereo not drawn) | human adenovirus 2 | viral replication | HEL |  | > 100 µM |
| CCCCc1nc(N)[nH]c(=O)c1Br | reovirus type 1 | virus-induced cytopathicity | Vero |  | > 100 µM |
| C#C[C@@]1(O)[C@H](O)[C@@H](CO)O[C@H]1n1ccc2c(N)ncnc21 | dengue virus type 2 | viral replication, Renilla luciferase reporter virus | Huh-7.5.1 | 48 h | 0.214 µM |
| Nc1nc(CCc2ccccc2)c(Br)c(=O)[nH]1 | reovirus type 1 | virus-induced cytopathicity | Vero |  | > 100 µM |
| CCOC(=O)C1(Cc2ccc(F)cc2)CN(c2ccccc2)Cc2nnn(Cc3cccc(F)c3)c21 (stereo not drawn) | human adenovirus 2 | viral replication | HEL |  | > 100 µM |
| NC(=O)c1ncn([C@@H]2O[C@H](CO)[C@@H](O)[C@H]2O)n1 | reovirus type 1 | virus-induced cytopathicity | Vero |  | > 250 µM |
| CCC(C)n1ncn(-c2ccc(N3CCN(c4ccc(OCC5COC(Cn6cncn6)(c6ccc(Cl)cc6Cl)O5)cc4)CC3)cc2)c1=O (stereo not drawn) | HRV14 | viral replication |  | 72 h | 0.64 ± 0.08 µM |
